Measurements gathered from unrelated publications.
Parts stem from different laboratories: compare values within a part only.

Sample 1 — technique: RNA Bind-n-Seq; form: RNA; sample: in vitro; concentration: 365 nM; baseline: no-protein control; direction: higher = stronger binding
Target: RNA binding protein fox-1 homolog 2, RRM domain, GST-SBP tag (RBFOX2, Homo sapiens, UniProt O43251-10, residues 100-194)
Setting: natural RNA segment, single round, ends assumed
Shared flanks, not repeated: GGGAGUUCUACAGUCCGACGAUC … UGGAAUUCUCGGGUGCCAA
Construct (chain): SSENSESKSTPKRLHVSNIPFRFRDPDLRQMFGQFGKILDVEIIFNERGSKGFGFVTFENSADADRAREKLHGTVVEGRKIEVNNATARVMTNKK
| Strand | RBNS enrichment (R) |
| --- | --- |
| CAGCUCCAACAUGCGGGAUGUUCAUCCUCCUACACAGAUUCUUGUUGGGUGAAACAGAUUGUCCUAUCACAAAGCAGAAUUCAACAAAGUUAAAAUUUAAGAUAAGGUUU | 0.382 |
| UGUGUGUAGACAUUGUAUUCCACAAUUUUGAAUGGCUGUGUUUUACCUCUAAAUAAAUGAAUUCAGAAAAGUGUGUAGUGUACUGAUUAUUUAGCAGCUUAACUUUAGGU | 1.63 |
| AAAAAAAAAAAACACGUUUGAUACUUUGUACAUCAGAUGCAUCUUAUUUAAAAGGGAUACUUUUGUAAAAGUAAAACCUUGUAUAAAGAACAAAAUGUUUCUUAAUUUUA | 3.05 |
| GCUCUAGGGCUGUGCACUUUCCACUUUCCGGAGGAAUAGAGUUUUUCUUUUUUUCAACUCUCCAUCAAAUGUGCCUUAAAGUUAAGCAUUUUGACCCAAGUGUUUUAACU | 0.39 |
| UUGGCCCUAUCCUCUCCAUUAGCUCCUUCCGGGUUUGGACCAUUCCCCCCACUCCCUACCCUUAAUCCCCACAUGGGAAGAAGCUAUCAUCACAGGUACAAACAUCGCUU | 0.544 |
| UGACUAGGGUCUUCUCUCUCCCCUGUUCUGAAUGGAGUAAAAGUCUGAUGCCAAGACAAAUAUUGGGAGCGAGCCUUCCUCACUAGCCAUGUCCAAAUAAUGAGCGUAUU | 0.462 |
| AAUAGUAACAUUUACCUGUCCACUGUGAAUCAAAGCCUGGGGCACGCUACUCAACCUUAGACACACUUACAGGCUUUUAUUUUGAUUGUGUUAUUUUAUUUUCCAUACAG | 0.741 |
| GGUAUGAAUGCUCAGAGCUCACCCGAGCAUGCUGGUAGAGUCAGGGUGUGUAUUUAGUCACCAACCGGCCUCCAUUGUGUGUAUCAGCAAACACCAGACUCGCUCAGAGG | 0.827 |
| AAAGCAAGAGUAUUUGGAGCAAGAAGCUGCAAUGCGCCAAAUACACAAUAGGCCUUUUCUUUAUCAUUCAUACGACAUUUCUGGUUUAGGUGUAUGUAGUUGGGCCAUGU | 0.578 |
| AGAUACAGACCAAUUAGUUUAGAUCAAAUCACCUUCCACUUGGGCUACUUGUGACUUUCCAACCUGGUAACUUCCACUGAAUUCUGGAAAGAGAAAUUCUUGAGGACCCU | 0.358 |
| UAUGAAACGAAUGUGUUUUUGACUGUUAACUGGGUUCGCUUUCCAGAUCUGUCUUUCCCAAAUGAAAGGUUAGUCCCAUAGACCACUGGCUAUUCAGGGAAAUUACUCUC | 0.421 |
| UGAGCCCCUCACAGCCUUGCCCCUCCCCAAGGCUGGCAACCUGCCUCCCAUUGCCCAAGAGAGAGGGCAGGGAACAGGCUACUGUCCUUCCCUGUGGAAUUGCCGAGAAA | 0.546 |

Sample 2 — technique: aptamer microarray, sandwich; form: DNA with 2'F-ANA; sample: in vitro; concentration: 200 nM; with: Cy3 exosite-II aptamer, 400 nM; direction: higher = stronger binding; strand: GGTTGGTGTGGTTGG
Target: Prothrombin, mature alpha-thrombin (F2, Homo sapiens, UniProt P00734)
Setting: whole 15-mer aptamer, many near background
| Modification | mean fluorescence intensity |
| --- | --- |
| 2'F-ANA at 2 4 8 9 12 13 | 431 a.u. |
| 2'F-ANA at 1 2 3 6 7 9 11 12 15 | 250 a.u. |
| 2'F-ANA at 1 4 7 10 11 12 13 15 | 51.8 a.u. |
| 2'F-ANA at 6 7 9 10 12 15 | 198 a.u. |
| 2'F-ANA at 1 2 3 5 6 7 10 11 12 13 14 15 | 155 a.u. |
| 2'F-ANA at 1 5 7 8 10 11 12 14 | 287 a.u. |
| 2'F-ANA at 1 2 7 9 10 12 | 74.7 a.u. |
| 2'F-ANA at 3 4 7 8 9 10 11 13 | 258 a.u. |
| 2'F-ANA at 2 4 12 13 15 | 413 a.u. |
| 2'F-ANA at 3 4 6 7 10 11 | 268 a.u. |
| 2'F-ANA at 2 3 4 5 11 13 15 | 67.4 a.u. |
| 2'F-ANA at 1 2 5 7 8 11 13 15 | 49.6 a.u. |
| 2'F-ANA at 1 2 4 6 9 10 14 | 43.4 a.u. |
| 2'F-ANA at 1 5 11 12 13 14 | 44.4 a.u. |
| 2'F-ANA at 7 9 10 12 15 | 229 a.u. |
| 2'F-ANA at 1 6 8 9 10 11 14 | 49.1 a.u. |
| 2'F-ANA at 1 4 5 6 8 10 15 | 46.9 a.u. |
| 2'F-ANA at 1 4 5 6 7 8 11 | 53 a.u. |
| 2'F-ANA at 3 6 8 10 11 12 13 14 15 | 326 a.u. |
| 2'F-ANA at 1 3 4 7 10 12 15 | 81.5 a.u. |
| 2'F-ANA at 1 2 3 4 5 6 7 9 11 13 14 | 49.6 a.u. |
| 2'F-ANA at 2 5 6 9 10 11 12 13 14 | 66.2 a.u. |
| 2'F-ANA at 3 4 5 6 7 11 15 | 70.6 a.u. |
| 2'F-ANA at 5 6 8 11 15 | 61.7 a.u. |
| 2'F-ANA at 1 2 3 4 11 12 15 | 253 a.u. |

Sample 3 — technique: competition protein-binding microarray; form: double-stranded DNA, one strand shown; sample: in vitro; concentration: 2 µM; with: Pho4 competitor, 0.05 µM; direction: higher = stronger binding; shared flanks, not repeated: … GTCTTGATTCGCTTGACGCTGCTG
Target: Centromere-binding protein 1, full length, His-tagged (CBF1, Saccharomyces cerevisiae, UniProt P17106, residues 1-351)
Chain of UniProt P17106 (whole entry, looked up): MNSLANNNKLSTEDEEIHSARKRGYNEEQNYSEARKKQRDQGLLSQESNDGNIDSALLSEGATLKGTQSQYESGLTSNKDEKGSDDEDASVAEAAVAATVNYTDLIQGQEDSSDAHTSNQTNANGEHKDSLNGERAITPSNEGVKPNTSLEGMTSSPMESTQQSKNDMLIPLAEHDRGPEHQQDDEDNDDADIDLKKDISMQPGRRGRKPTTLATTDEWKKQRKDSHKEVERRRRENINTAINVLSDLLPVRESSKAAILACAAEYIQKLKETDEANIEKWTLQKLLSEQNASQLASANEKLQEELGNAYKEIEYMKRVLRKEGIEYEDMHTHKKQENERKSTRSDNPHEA
Setting: whole 60-bp probe, lowest competitor level
| Strand | fluorescence intensity [a.u.] |
| --- | --- |
| TTAGATTAAGTAGGACGCATGATGTTGAGCTCTTTT | 67.4 |
| GACATCAAATGCAAGCACATGAAGCTGGAACTTCGC | 93.3 |
| CTGTCATCATGTACTCATGTGCCCGCGCGCGCGCTT | 107 |
| AGATCTTCGAAGAACCACATGTTGGATGACCGGGCA | 78.7 |
| CGGGGTTAAGTTTTTCACGTGCTCTGCTTGCAGCAG | 1130 |
| GTTACTGGTGGTTGTCATGTTTCCCAAGTTTACGCC | 67.5 |
| GTCTTGTCTCATTGTTCGGTGGGTGTCCCCACTTCA | 65.5 |
| AAAGCGGTAATTTGGAATGTGGGTGCAGATATCTAT | 85.1 |
| ACCCCAGCCGCCGGGTTCGTGCCAGTCTGGTAAGCC | 56 |
| TGCGCAACAACTTGTCACTGAACTTTATGTCTAGAA | 79.7 |
| TTGAGCTTATAAAAGCACGTGACGGCAATTCACCCC | 11800 |
| GTAACCGGTCAAAGCCATGTGAGCCATGAATAAAGA | 148 |
| TTGGTAGAGGCGGTTCTCGTGGTGAAGCCCCTGGTG | 50.1 |
| CTTATAAACAGCGCTGACGTGCTTTGACTTTGTTCC | 72.6 |
| TTCCTAGACTGGTCCCACGTTGGGAAAAACCAATCA | 86.3 |
| AAAGCGGTAATTTGCAGCGTGGGTGCAGATATCTAT | 63.8 |
| CAATGAAGTTAATATCACATGTTATGATCCACCAAG | 741 |
| TGGAGAAAGATTCACCACGTTCACTCAAGATCTTCA | 78.9 |
| GCAAATTACCATTTGAGCGTGCGGAAATAAGCTCCT | 85.1 |

Sample 4 — technique: protein-binding microarray; form: double-stranded DNA, one strand shown; sample: in vitro; concentration: 940 nM top; setting: 60-bp whole probe; with: salmon DNA 0.4 mg/ml; baseline: random background probes; direction: higher = stronger binding; shared flanks, not repeated: GCCTAGCAC … GTCTTGATTCGCTTGACGCTGCTG
Target: Interferon regulatory factor 5, full length, phosphomimetic (IRF5, Homo sapiens, UniProt Q13568-2, residues 1-514, S451D/S453D/S456D/S462D)
| Strand | fitted relative affinity [z-score] |
| --- | --- |
| GACGGACTGGGGTACCGGGACGTGCTA | -0.218 |
| TTAGGGCTGGGTCTCGGTTAGTGCTAG | 1.3 |
| TTATGTTTCGGGACTGGGTTAGTGCTA | 3.41 |
| TTAGAATTCGGGTATCGATTAGTGCTA | 3.05 |
| TTAGGTATCGGTATCTGTTAGTGCTAG | 9.75 |
| TTAGGACTGGACTTTCGGATAGTGCTA | 0.491 |
| TTTGATCTCAGTCTCGATTAGTGCTAG | 3.56 |
| TTAGGACAGGGGTATCGGTTAGTGCTA | 2.6 |
| GACGGACTGGACTATCGAGACGTGCTA | -0.183 |
| TTAGACCTGGGGTATCGATTAGTGCTA | 2.8 |
| GACGGTTTCCTTTCCCTGAAGTGCTAG | 1.57 |
| TCACTTTACTCACTCGGACTGTGCTAG | 1.06 |
| CAGTTTTCCTATGTCATTTAGTGCTAG | 2.26 |
| GACGAACTGTGTTTCGAGACGTGCTAG | 0.46 |
| GACGATCTCAGTAGCGAGACGTGCTAG | 0.109 |
| TATTGTTTCCTCTTTCACTGGTGCTAG | 2.1 |
| GACGATCTCAGTATGGAGACGTGCTAG | 0.0873 |
| GAGGTTTTCTAATGTTTTTTAGTGCTA | 0.751 |
| ATAGTGATAGCTCTGGTAAAGTGCTAG | -0.668 |
| GACGGACTACTTCTCCTGACGTGCTAG | -0.0654 |
| GACGGACTGCGACTGGGGACGTGCTAG | -0.627 |
| ATAACCTTGAACTTCGGCCTGTGCTAG | -0.127 |
| CTCCCTTGAGGTTTTCTCTGGGTGCTA | -0.213 |
| GATGGTCTCGGTCTCGGGACGTGCTAG | 4.65 |
| TCAACTTTCTTTTGCTTACTGTGCTAG | 1.75 |

Excerpt of the above (sample 3):
| Strand | fluorescence intensity [a.u.] |
| --- | --- |
| TTGGTAGAGGCGGTTCTCGTGGTGAAGCCCCTGGTG | 50.1 |
| GTCTTGTCTCATTGTTCGGTGGGTGTCCCCACTTCA | 65.5 |
| CTTATAAACAGCGCTGACGTGCTTTGACTTTGTTCC | 72.6 |
| TGGAGAAAGATTCACCACGTTCACTCAAGATCTTCA | 78.9 |
| GTTACTGGTGGTTGTCATGTTTCCCAAGTTTACGCC | 67.5 |
| ACCCCAGCCGCCGGGTTCGTGCCAGTCTGGTAAGCC | 56 |
| TTGAGCTTATAAAAGCACGTGACGGCAATTCACCCC | 11800 |
